Measurements from different studies.
Every numbered part comes from another study and shows a few of its results, in no order. Values joined by “and” are separate records of one study, mostly repeats; a detail may differ.
Sequence of UniProt P00519 (whole entry, unmodified, looked up): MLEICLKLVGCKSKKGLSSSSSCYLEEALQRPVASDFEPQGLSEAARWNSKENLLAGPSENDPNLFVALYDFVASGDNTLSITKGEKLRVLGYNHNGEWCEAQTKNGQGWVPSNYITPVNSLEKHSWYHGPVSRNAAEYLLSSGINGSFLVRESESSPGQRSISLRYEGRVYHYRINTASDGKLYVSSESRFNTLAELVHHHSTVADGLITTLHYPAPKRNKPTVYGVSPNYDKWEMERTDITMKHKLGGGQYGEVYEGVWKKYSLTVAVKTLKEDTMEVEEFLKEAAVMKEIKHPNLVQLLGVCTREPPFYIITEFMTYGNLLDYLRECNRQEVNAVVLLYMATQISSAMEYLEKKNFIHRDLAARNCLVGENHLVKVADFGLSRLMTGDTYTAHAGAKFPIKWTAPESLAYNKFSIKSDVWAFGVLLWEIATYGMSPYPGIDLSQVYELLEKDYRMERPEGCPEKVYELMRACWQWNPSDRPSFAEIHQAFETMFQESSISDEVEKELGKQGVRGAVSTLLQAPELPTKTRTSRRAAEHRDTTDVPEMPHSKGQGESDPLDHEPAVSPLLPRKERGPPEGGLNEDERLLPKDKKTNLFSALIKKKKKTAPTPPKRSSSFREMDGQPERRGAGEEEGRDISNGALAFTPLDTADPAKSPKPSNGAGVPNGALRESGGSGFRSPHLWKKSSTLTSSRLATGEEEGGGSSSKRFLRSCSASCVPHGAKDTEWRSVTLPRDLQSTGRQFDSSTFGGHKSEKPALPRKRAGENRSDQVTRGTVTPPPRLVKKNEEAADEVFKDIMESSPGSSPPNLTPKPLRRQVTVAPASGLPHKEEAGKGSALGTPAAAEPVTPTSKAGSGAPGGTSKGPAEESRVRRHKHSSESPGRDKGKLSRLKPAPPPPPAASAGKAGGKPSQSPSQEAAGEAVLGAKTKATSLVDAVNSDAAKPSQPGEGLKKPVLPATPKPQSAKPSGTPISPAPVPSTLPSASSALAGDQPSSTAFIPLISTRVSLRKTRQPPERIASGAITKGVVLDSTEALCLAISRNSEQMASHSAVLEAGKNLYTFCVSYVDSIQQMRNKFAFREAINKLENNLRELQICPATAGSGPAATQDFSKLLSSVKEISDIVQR
Sequence of UniProt Q16288 (whole entry, looked up): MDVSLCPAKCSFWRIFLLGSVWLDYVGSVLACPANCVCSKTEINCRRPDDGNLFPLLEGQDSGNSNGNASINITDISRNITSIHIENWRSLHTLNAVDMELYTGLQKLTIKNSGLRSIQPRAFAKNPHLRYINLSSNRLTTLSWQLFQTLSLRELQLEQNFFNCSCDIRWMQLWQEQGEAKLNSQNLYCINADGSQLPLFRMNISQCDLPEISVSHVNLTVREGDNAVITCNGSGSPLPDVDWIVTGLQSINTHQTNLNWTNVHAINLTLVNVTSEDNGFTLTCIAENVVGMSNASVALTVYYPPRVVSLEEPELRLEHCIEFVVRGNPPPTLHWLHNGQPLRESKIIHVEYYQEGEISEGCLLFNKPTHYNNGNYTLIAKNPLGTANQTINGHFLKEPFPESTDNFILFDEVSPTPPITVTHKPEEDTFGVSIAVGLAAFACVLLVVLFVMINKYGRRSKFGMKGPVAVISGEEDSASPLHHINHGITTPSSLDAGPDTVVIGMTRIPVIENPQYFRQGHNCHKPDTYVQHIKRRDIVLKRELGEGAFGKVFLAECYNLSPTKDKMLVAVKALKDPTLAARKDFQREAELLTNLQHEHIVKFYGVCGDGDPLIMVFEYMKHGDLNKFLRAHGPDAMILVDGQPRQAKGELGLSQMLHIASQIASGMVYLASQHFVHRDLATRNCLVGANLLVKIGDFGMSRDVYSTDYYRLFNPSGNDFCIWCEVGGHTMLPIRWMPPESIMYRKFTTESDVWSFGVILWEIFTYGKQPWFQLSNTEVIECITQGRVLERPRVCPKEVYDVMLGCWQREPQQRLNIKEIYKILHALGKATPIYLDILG
Sequence of UniProt Q16659 (whole entry, looked up): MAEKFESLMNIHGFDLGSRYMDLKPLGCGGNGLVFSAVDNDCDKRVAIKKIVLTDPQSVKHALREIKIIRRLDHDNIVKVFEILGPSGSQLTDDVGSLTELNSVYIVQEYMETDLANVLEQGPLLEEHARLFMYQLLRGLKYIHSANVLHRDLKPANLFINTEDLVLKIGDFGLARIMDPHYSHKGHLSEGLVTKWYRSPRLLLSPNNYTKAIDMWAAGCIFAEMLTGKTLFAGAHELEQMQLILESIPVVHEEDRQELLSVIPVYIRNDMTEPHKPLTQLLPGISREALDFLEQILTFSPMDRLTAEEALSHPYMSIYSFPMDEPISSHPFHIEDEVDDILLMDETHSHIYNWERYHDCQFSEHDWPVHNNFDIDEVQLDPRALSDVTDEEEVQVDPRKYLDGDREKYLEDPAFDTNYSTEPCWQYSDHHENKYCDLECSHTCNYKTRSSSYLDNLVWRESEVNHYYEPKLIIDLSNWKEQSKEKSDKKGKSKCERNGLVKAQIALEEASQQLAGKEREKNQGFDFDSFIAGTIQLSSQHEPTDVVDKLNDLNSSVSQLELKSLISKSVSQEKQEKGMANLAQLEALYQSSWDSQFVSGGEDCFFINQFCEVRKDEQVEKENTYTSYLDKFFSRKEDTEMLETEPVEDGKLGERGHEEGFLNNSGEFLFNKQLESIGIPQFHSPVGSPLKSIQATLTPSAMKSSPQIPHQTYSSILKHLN
Sequence of UniProt P50750 (whole entry, looked up): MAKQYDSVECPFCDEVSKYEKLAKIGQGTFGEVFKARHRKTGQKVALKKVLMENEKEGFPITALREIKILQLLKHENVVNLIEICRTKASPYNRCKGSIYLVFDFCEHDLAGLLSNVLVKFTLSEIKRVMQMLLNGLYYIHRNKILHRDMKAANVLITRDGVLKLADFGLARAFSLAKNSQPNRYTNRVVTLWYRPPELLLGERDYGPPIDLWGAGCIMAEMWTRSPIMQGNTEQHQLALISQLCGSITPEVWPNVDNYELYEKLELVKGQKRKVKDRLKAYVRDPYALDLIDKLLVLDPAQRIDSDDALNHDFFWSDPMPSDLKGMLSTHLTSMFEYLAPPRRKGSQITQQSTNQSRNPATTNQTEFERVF

Series 1 — tested at: 1 µM
Structure (SMILES): CC[C@@]1(c2ccccc2)C2=C(CC(C)(C)CC2=O)Nc2n[nH]cc21
The remaining binding was 100% (MAP3K5 (Homo sapiens, UniProt Q99683); binding, competition with immobilised ligand).
NLK (Homo sapiens, UniProt Q9UBE8); binding, competition with immobilised ligand — remaining binding: 100%.
The remaining binding was 100% (MAPK6 (Homo sapiens, UniProt Q16659); kinase binding, KINOMEscan; relative to: DMSO control).
For CDK14 (Homo sapiens, UniProt O94921); binding, competition with immobilised ligand: remaining binding read 100%.
For NEK11 (Homo sapiens, UniProt Q8NG66); binding, competition with immobilised ligand: remaining binding read 76%.
For Tyrosine-protein kinase ABL1, phosphorylated (ABL1, Homo sapiens, UniProt P00519, F317I); binding, competition with immobilised ligand: remaining binding read 98%.
It gave 96% for remaining binding (PHKG1 (Homo sapiens, UniProt Q16816); binding, competition with immobilised ligand).
FLT3 (Homo sapiens, UniProt P36888, N841I); kinase binding, KINOMEscan; relative to: DMSO control — remaining binding: 100%.
For SRPK1 (Homo sapiens, UniProt Q96SB4); binding, competition with immobilised ligand: remaining binding read 95%.
The remaining binding was 100% (MAPKAPK2 (Homo sapiens, UniProt P49137); kinase binding, KINOMEscan; relative to: DMSO control).
For BMPR2 (Homo sapiens, UniProt Q13873); binding, competition with immobilised ligand: remaining binding read 97%.
NTRK3 (Homo sapiens, UniProt Q16288); binding, competition with immobilised ligand — remaining binding: 83%.
For BRAF (Homo sapiens, UniProt P15056); kinase binding, KINOMEscan; relative to: DMSO control: remaining binding read 100%.
ACVRL1 (Homo sapiens, UniProt P37023); kinase binding, KINOMEscan; relative to: DMSO control — remaining binding: 100%.
For Non-receptor tyrosine-protein kinase TYK2, JH2 pseudokinase domain (TYK2, Homo sapiens, UniProt P29597); kinase binding, KINOMEscan; relative to: DMSO control: remaining binding read 100%.
It gave 100% for remaining binding (CDK9 (Homo sapiens, UniProt P50750); kinase binding, KINOMEscan; relative to: DMSO control).
STK16 (Homo sapiens, UniProt O75716); binding, competition with immobilised ligand — remaining binding: 91%.
MAP3K4 (Homo sapiens, UniProt Q9Y6R4); kinase binding, KINOMEscan; relative to: DMSO control — remaining binding: 100%.
It gave 100% for remaining binding (FLT3 (Homo sapiens, UniProt P36888); kinase binding, KINOMEscan; relative to: DMSO control).
The remaining binding was 100% (CILK1 (Homo sapiens, UniProt Q9UPZ9); kinase binding, KINOMEscan; relative to: DMSO control).
For Ribosomal protein S6 kinase alpha-2, C-terminal kinase domain (RPS6KA2, Homo sapiens, UniProt Q15349); binding, competition with immobilised ligand: remaining binding read 78%.
The remaining binding was 100% (IGF1R (Homo sapiens, UniProt P08069); binding, competition with immobilised ligand).
For KIT (Homo sapiens, UniProt P10721, D816H); binding, competition with immobilised ligand: remaining binding read 100%.

Series 2 — read-out: thermal unfolding; method: differential scanning fluorimetry; tested at: 5.5 µM; direction: higher = more unfolded
Structure (SMILES): C[C@@H]1CN(c2ccc(-c3cc(C(=O)NCCOCCOCCOCCOCCOCCOCCNC(=O)/C=C/c4[nH]cc(C(=O)N[C@@H](CC(N)=O)c5ccc(F)c(Cl)c5)c4-c4ccc(Cl)cc4F)ccc3F)cc2NC(=O)c2ccc(F)cc2C(F)(F)F)C[C@H](C)N1C
DCAF1: DDB1- and CUL4-associated factor 1 (DCAF1, Homo sapiens, UniProt Q9Y4B6)
Sequence of UniProt Q9Y4B6 (whole entry, looked up): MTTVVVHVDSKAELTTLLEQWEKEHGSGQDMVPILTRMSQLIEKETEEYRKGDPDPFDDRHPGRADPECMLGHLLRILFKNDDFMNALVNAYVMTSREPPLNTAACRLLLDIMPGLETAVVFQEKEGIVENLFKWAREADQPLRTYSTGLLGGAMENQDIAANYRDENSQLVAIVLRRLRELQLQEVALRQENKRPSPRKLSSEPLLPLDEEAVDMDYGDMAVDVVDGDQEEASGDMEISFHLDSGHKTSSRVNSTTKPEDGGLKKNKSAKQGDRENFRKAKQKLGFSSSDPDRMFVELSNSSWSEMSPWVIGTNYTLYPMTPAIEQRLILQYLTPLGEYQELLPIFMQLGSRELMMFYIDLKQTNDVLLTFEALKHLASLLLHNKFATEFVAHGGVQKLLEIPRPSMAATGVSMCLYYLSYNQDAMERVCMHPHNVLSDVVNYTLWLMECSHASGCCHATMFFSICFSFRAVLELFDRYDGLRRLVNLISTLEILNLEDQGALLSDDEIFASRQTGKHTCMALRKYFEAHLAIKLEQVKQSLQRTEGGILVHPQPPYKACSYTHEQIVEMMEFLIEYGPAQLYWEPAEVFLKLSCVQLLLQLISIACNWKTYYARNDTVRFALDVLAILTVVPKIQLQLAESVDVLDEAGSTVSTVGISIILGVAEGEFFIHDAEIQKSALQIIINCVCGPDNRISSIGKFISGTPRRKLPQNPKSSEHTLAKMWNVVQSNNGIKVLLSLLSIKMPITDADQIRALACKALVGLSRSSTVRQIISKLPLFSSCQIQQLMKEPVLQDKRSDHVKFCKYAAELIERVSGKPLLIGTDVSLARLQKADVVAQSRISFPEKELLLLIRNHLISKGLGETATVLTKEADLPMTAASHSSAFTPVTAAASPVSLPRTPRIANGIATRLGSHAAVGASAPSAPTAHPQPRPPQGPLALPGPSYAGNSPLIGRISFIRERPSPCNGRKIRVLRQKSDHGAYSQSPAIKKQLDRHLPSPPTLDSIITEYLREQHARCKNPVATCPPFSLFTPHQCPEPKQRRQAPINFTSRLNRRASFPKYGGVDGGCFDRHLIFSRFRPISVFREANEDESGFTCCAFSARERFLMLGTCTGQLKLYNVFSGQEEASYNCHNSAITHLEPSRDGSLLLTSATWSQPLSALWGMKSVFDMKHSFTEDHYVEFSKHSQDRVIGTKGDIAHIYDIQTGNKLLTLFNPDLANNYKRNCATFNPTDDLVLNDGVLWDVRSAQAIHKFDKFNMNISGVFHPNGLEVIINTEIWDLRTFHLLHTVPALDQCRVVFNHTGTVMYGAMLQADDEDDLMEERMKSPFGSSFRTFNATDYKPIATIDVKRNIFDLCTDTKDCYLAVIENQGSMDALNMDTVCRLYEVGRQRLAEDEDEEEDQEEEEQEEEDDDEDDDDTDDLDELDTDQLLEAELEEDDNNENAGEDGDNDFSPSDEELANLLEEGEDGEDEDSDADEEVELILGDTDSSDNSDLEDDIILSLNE
WDR5: WD repeat-containing protein 5 (WDR5, Homo sapiens, UniProt P61964)
DCAF1; 30.4 °C — “SYPRO Orange fluorescence”: 8480 a.u.
The “SYPRO Orange fluorescence” was 53300 a.u. (DCAF1; 62.41 °C).
It gave 14500 a.u. for “SYPRO Orange fluorescence” (WDR5; 44.2 °C).
WDR5; 29 °C — “SYPRO Orange fluorescence”: 13500 a.u.
For DCAF1; 51.8 °C: “SYPRO Orange fluorescence” read 20100 a.u.
The “SYPRO Orange fluorescence” was 15300 a.u. (WDR5; 60.41 °C).
The “SYPRO Orange fluorescence” was 16700 a.u. (WDR5; 65.41 °C).
It gave 9270 a.u. for “SYPRO Orange fluorescence” (DCAF1; 33 °C).
For WDR5; 80.41 °C: “SYPRO Orange fluorescence” read 65300 a.u.
It gave 11200 a.u. for “SYPRO Orange fluorescence” (DCAF1; 39.6 °C).
It gave 57700 a.u. for “SYPRO Orange fluorescence” (WDR5; 77.21 °C).

Series 3 — method: qRT-PCR; species: mouse, PK-59 xenograft; medium: tumour; setting: unit not given
SMILES: Cc1ncsc1-c1ccc(C(CO)NC(=O)C2CC(O)CN2C(=O)C(C(C)C)n2cc(-c3ccc(COc4c(-c5c(C)c(F)cc6[nH]ncc56)c(C5CC5)cc5c(N6CC7CC6CN7)nc(OC6CCOCC6)nc45)cc3)nn2)cc1 (centres unmarked)
The mRNA level was 0.0108 and 0.0112 and 0.00853 (measured: ETV4; intravenous, 10 mg/kg, 144 h; relative to: vehicle, same time point).
For measured: SPRY4; intravenous, 10 mg/kg, 72 h; relative to: vehicle, same time point: mRNA level read 0.00105 and 0.00136 and 0.00121.
The mRNA level was 0.00753 and 0.00388 and 0.00381 (measured: SPRY4; intravenous, 10 mg/kg, 144 h; relative to: vehicle, same time point).
It gave 0.0395 and 0.0427 and 0.032 for mRNA level (measured: MYC; intravenous, 10 mg/kg, 72 h; relative to: vehicle, same time point).
For measured: DUSP6; 10 mg/kg, 48 h; relative to: vehicle: mRNA level read 0.139 and 0.122 and 0.125.
It gave 0.0339 and 0.0387 and 0.0348 for mRNA level (measured: DUSP6; intravenous, 10 mg/kg, 48 h; relative to: vehicle, same time point).
The mRNA level was 0.00689 and 0.00904 and 0.00794 (measured: DUSP6; intravenous, 30 mg/kg, 24 h; relative to: vehicle, same time point).
It gave 0.508 and 0.545 and 0.536 for mRNA level (measured: MYC; 10 mg/kg, 48 h; relative to: vehicle).
It gave 0.502 and 0.278 and 0.405 for mRNA level (measured: DUSP6; 30 mg/kg, 2 h; relative to: vehicle).

Mixed results
PKMYT1: Membrane-associated tyrosine- and threonine-specific cdc2-inhibitory kinase (PKMYT1, Homo sapiens, UniProt Q99640)
Sequence of UniProt Q99640 (whole entry, looked up): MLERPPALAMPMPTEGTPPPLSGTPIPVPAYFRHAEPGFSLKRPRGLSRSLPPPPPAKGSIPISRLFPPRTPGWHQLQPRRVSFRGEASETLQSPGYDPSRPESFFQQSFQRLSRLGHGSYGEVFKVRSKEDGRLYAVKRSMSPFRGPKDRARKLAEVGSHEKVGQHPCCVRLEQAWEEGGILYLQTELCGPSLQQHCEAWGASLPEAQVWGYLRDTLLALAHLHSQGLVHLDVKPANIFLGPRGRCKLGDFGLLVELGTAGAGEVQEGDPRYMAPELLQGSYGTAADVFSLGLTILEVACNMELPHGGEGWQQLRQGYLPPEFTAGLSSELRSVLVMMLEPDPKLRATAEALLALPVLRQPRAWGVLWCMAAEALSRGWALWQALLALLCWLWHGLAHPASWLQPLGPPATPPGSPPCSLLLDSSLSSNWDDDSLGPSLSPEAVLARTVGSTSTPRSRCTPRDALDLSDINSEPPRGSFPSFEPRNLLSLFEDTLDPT
Cc1ccc(O)c(C)c1-c1cnc2[nH]c(-c3cnc(N4CCC5(CC4)CC(N4CCN(c6ccc(N[C@H]7CCC(=O)NC7=O)cc6F)CC4)CO5)nc3)cc2c1C#N (single isomer, unassigned) gave a degradation of 89.4% (PKMYT1; degrader, automated immunoblot (Jess); HCC1569; 333.33 nM, 24 h).
Cc1ccc(O)c(C)c1-c1cnc2[nH]c(-c3cnc(N4CCC(CN5CCN(c6ccc(NC7CCC(=O)NC7=O)cc6F)CC5)CC4)nc3)cc2c1C#N (centres unmarked) gave a Vd of 3.5 L/kg (male cynomolgus monkey, plasma; intravenous, 1 mg/kg).
Cc1ncc(-c2cc3c(N)c(-c4c(C)ccc(O)c4C)cnc3[nH]2)cn1 — result for “pCDK1 (Thr14) level”: 28.6 RLU and 22.5 RLU (HCC1569; in-cell western, measured: CDK1 phospho-Thr14; 3333.33 nM).
Cc1ccc(O)c(C)c1-c1cnc2[nH]c(-c3cnc(N4CCC5(CC4)CC(N4CCN(c6cc7c(cc6F)c(N6CCC(=O)NC6=O)nn7C)CC4)CO5)nc3)cc2c1C#N (racemic) gave an inhibition of 8.11% and 8.14% (PKMYT1; binding, HTRF; 0.46 nM).

Some of these lines once more (series 2):
The “SYPRO Orange fluorescence” was 16700 a.u. (WDR5; 65.41 °C).
It gave 9270 a.u. for “SYPRO Orange fluorescence” (DCAF1; 33 °C).
For WDR5; 80.41 °C: “SYPRO Orange fluorescence” read 65300 a.u.
